{"data": "Measurements gathered from unrelated publications", "note": "Protocols differ between the studies behind these lines. Numbers after ± are the reported error."}
{"SMILES": "CC(C)C[C@H](NC(=O)C[C@H](O)[C@H](CC(C)C)NC(=O)[C@H](Cc1c[nH]cn1)NC(=O)CNC(=O)[C@@H](NC(=O)[C@H](C)NC(=O)[C@H](Cc1c[nH]c2ccccc12)NC(=O)[C@H](CCC(N)=O)NC(=O)[C@@H](Cc1ccccc1)NC(=O)CCNC(=O)CCNC(=O)CN1CCN(CC(=O)O)CCN(CC(=O)O)CCN(CC(=O)O)CC1)C(C)C)C(N)=O [lutetium-177 labelled]", "test": "MIRD", "test system": "mouse PC-3 xenograft, kidneys", "conditions": "intravenous, 50 MBq, with PA", "endpoint": "absorbed dose", "result": "3.7 Gy"}
{"SMILES": "COCCOCCOCCOCCOCCOCCOCCOCCOCCOCCOCCOCCNC(=O)CCc1ccc(N(c2ccc(CCC(=O)NCCOCCOCCOCCOCCOCCOCCOCCOCCOCCOCCOCCOC)cc2)c2ccc(-c3c4c(c(-c5ccc(N(c6ccc(CCC(=O)NCCOCCOCCOCCOCCOCCOCCOCCOCCOCCOCCOCCOC)cc6)c6ccc(CCC(=O)NCCOCCOCCOCCOCCOCCOCCOCCOCCOCCOCCOCCOC)cc6)cc5)c5nsnc35)N=S=N4)cc2)cc1", "test system": "KM mice, female, faeces", "conditions": "intravenous, dose not given, 24 h", "how to read": "reference: dose", "endpoint": "faecal excretion", "result": "~11%"}
{"SMILES": "CC[C@H](C)[C@H](NC(=O)[C@H](N)Cc1ccc(O)cc1)C(=O)N[C@H]1CSSC[C@@H](C(=O)N(C)[C@H](C(N)=O)[C@@H](C)CC)NC(=O)[C@H](CCCNC(=N)N)NC(=O)[C@H](Cc2c[nH]cn2)NC(=O)[C@H](C)NC(=O)CN(C)C(=O)[C@H](Cc2c[nH]c3ccccc23)NC(=O)[C@H](CC(=O)O)NC(=O)[C@H](CCC(N)=O)NC(=O)[C@H](Cc2cn(C)c3ccccc23)NC(=O)[C@H](C(C)C)NC1=O", "test": "UPLC-ESI-MS", "test system": "cynomolgus monkey plasma", "conditions": "3.58 µg/mL, 24 h, 4 °C, autosampler after SPE", "endpoint": "recovery", "result": "99 ± 0.3%"}
{"SMILES": "COC(=O)C1OC(Oc2c(-c3ccccc3)oc3cc(O)c(O)c(O)c3c2=O)C(O)C(O)C1O (stereo not shown)", "test system": "BALB/c mouse, liver", "conditions": "1 mg/kg", "endpoint": "organ weight", "result": "3.4 ± 0.5 g"}
{"SMILES": "CC(C)[C@H](NC(=O)[C@@H]1CCCN1C(=O)[C@H](CCCNC(=N)N)NC(=O)[C@H](CS)NC(=O)[C@H](Cc1c[nH]c2ccccc12)NC(=O)[C@H](CCCNC(=N)N)NC(=O)[C@@H](Cc1ccccc1)NC(=O)[C@H](Cc1c[nH]cn1)NC(=O)[C@H](CCC(=O)O)NC(=O)[C@H](CS)NC(=O)[C@H](CS)NC(=O)CNC(=O)[C@@H]1CC(=O)N[C@@H](CCCNC(=N)N)C(=O)NCC(=O)N[C@@H](CC(=O)O)C(=O)N[C@H](Cc2ccc(O)cc2)C(=O)N1)C(N)=O [technetium-99m labelled]", "test system": "C57 mouse, female, B16/F1 melanoma, blood", "conditions": "intravenous, 0.037 MBq, 0.5 h", "endpoint": "tissue uptake", "result": "5.07 ± 3.4 %ID/g"}
{"SMILES": "COc1ccc(/C=C/c2ccc(-c3ccc(C)cn3)nc2)cc1", "test": "TCSPC", "test system": "acetonitrile", "conditions": "zinc-free ligand", "endpoint": "fluorescence lifetime", "result": "0.6 ns"}
{"SMILES": "CCCC[C@H](NC(C)=O)C(=O)N[C@H]1CC(=O)NCCCC[C@@H](C(=O)N[C@@H](C(=O)N2CCC[C@@H]2C(N)=O)C(C)C)NC(=O)[C@H](Cc2c[nH]c3ccccc23)NC(=O)[C@H](CCCN=C(N)N)NC(=O)[C@@H](Cc2ccc3ccccc3c2)NC(=O)[C@@H]2CCCN2C1=O", "test system": "Beagle dog, both sexes, plasma", "conditions": "subcutaneous, once daily, 2.25 mg/kg, day 1", "endpoint": "volume of distribution", "result": "2450 ± 249 mL"}
{"SMILES": "CCC(=O)N[C@@H](C)C(=O)OCC(=O)N[C@@H](C)C(=O)O", "test system": "water", "conditions": "pH 6, 25 °C", "endpoint": "depolymerization half-life", "result": "33.6 days"}
{"SMILES": "CC(C)C[C@@H](NC(=O)[C@H](NC(=O)[C@H]1CCCN1)[C@H](C)O)C(=O)N[C@H](Cc1c[nH]cn1)C(=O)N[C@@H](C(=O)N[C@H](Cc1c[nH]cn1)C(=O)N[C@H](CC(N)=O)C(=O)N[C@H](CCCNC(=N)N)C(=O)N[C@H](CCCNC(=N)N)C(=O)N[C@H](CCCNC(=N)N)C(=O)N[C@H](CCCNC(=N)N)C(=O)N[C@H](CCCNC(=N)N)C(N)=O)[C@H](C)O", "test system": "Beagle dog, CSF", "conditions": "intravenous, 3 mg/kg, single dose", "endpoint": "MRT(0-inf)", "result": "1.62 ± 0.167 days"}
{"SMILES": "C[Si](C)(C)C[C@@H](CN)CC(=O)O", "test": "neuromuscular coordination", "test system": "Wistar rat male", "conditions": "oral, 300 mg/kg, 2 h", "endpoint": "performance time", "result": "180 s"}
{"SMILES": "Cn1c(=O)oc2ccc(-c3ccc(CC(C#N)NC(=O)C4CNCCCO4)c(F)c3)cc21 (stereo not shown)", "test": "measured: blood bilirubin increased", "test system": "human", "conditions": "60 mg single dose, fasted", "endpoint": "subjects with TRAE", "result": "0%"}
{"SMILES": "Cc1ccc(NCC(=O)Nc2ccc(F)c(Cl)c2)cc1CN1CCOCC1", "test system": "water", "endpoint": "kinetic solubility", "result": "> 250 µM"}
{"SMILES": "CCCC(CCC)NC(=O)c1ccc(OS(=O)(=O)O)c(OC)c1", "test system": "male Sprague-Dawley rats, plasma", "conditions": "oral, 50 mg/kg of parent drug", "how to read": "reference: 50 over 20 mg/kg dose", "endpoint": "AUC(0-last) ratio", "result": 4.37}
{"SMILES": "C#CCOc1ccc(/C=C2\\SC(=O)N(CC(=O)NCc3ccccc3)C2=O)cc1", "test": "inverse Kirkwood-Buff integrals", "test system": "binary solvent mixture", "conditions": "concentration not given, 298.15 K, mole fraction x1 0.30", "endpoint": "correlation volume", "result": "2990 cm³/mol"}
{"SMILES": "N=C(N)NCCC[C@@H]1NC(=O)[C@H](Cc2c[nH]c3ccccc23)NC(=O)[C@@H](CC2CCCCC2)NC(=O)[C@@H]2CCCN2C(=O)[C@@H](NC(=O)CCc2ccccc2)CCCNC1=O", "test system": "C57BL/6J mice, spinal cord", "conditions": "intraperitoneal, 1 mg/kg, two-compartment model", "endpoint": "elimination rate constant", "result": "0.000292 s⁻¹"}
{"SMILES": "CC[C@H](C)[C@H](NC(=O)[C@H](C)NC(=O)[C@@H](N)C(C)C)C(=O)N[C@H](C(=O)N[C@H](C(=O)N[C@@H](CC(C)C)C(=O)N[C@H](C(=O)N[C@@H](CCCCN)C(=O)O)C(C)C)C(C)C)[C@@H](C)O", "test system": "air-water interface", "endpoint": "surface partition coefficient", "result": "4.35e-06 m"}
{"SMILES": "CC(C)c1cnc(-c2cc(Cl)ccc2F)cc1Nc1ccncc1C(=O)NC(CO)CO", "test": "monotherapy, measured: fatigue", "test system": "human patients", "conditions": "oral, dose not given, grade 4, phase I A", "endpoint": "patients with treatment-related adverse event", "result": "0%"}
{"SMILES": "Oc1ccc2ccccc2c1/N=N/c1ccc(/N=N/c2ccccc2)cc1", "test system": "rat whole blood", "conditions": "16.0 µg/L, freeze-thaw cycle 1", "endpoint": "freeze-thaw stability deviation", "result": "-0.7%"}
{"SMILES": "CCCC[C@H](NC(=O)CNC(=O)CNC(=O)CN1CCN(CC(=O)O)CCN(CC(=O)O)CC1)C(=O)N[C@H]1CC(=O)NCCCC[C@@H](C(N)=O)NC(=O)[C@H](Cc2c[nH]c3ccccc23)NC(=O)[C@H](CCCNC(=N)N)NC(=O)[C@@H](Cc2ccccc2)NC(=O)[C@H](Cc2c[nH]cn2)NC1=O [copper-64 labelled]", "test system": "female C57 mouse, B16/F1 melanoma, bone", "conditions": "intravenous, 0.037 MBq, 4 h", "endpoint": "tissue uptake", "result": "0.19 ± 0.06 %ID/g"}
{"SMILES": "Nc1nc2c(ncn2CC(=O)N[C@@H](Cc2ccccc2)C(=O)N[C@@H](Cc2ccccc2)C(=O)N[C@@H](Cc2ccc(O)cc2)C(=O)O)c(=O)[nH]1", "test": "TEM", "test system": "hydrogel in water", "conditions": "2.0 wt%, pH 5.0 or 7.4, with: alkaline phosphatase at pH 7.4", "endpoint": "nanofiber width", "result": "14 nm"}
{"SMILES": "CCCC[C@H](NC(=O)CNC(=O)CNC(=O)CN1CCN(CC(=O)O)CCN(CC(=O)O)CC1)C(=O)N[C@H]1CC(=O)NCCCC[C@@H](C(N)=O)NC(=O)[C@H](Cc2c[nH]c3ccccc23)NC(=O)[C@H](CCCNC(=N)N)NC(=O)[C@@H](Cc2ccccc2)NC(=O)[C@H](Cc2c[nH]cn2)NC1=O [gallium-67 labelled]", "test system": "female C57 mice, B16/F1 melanoma, brain", "conditions": "intravenous, 0.037 MBq, 2 h", "endpoint": "tissue uptake", "result": "0.11 ± 0.07 %ID/g"}
{"SMILES": "CC(C)CCCC(C)CCCC(C)CCOC1OC[C@@H](O)[C@H](O)[C@H]1O (stereo partly shown)", "test": "drop shape tensiometry", "test system": "water", "conditions": "room temperature", "endpoint": "surface tension at CMC", "result": "28.6 mN/m"}
{"SMILES": "CC[C@@H](C)N([11CH3])C(=O)c1nc(-c2ccccc2)c2ccccc2n1", "test": "PET Logan analysis", "test system": "male rhesus monkey, cerebellum", "conditions": "intravenous, dose not given, baseline", "endpoint": "total volume of distribution", "result": "2.4 mL/cm³"}
{"SMILES": "Cc1ccc(C(C)C)cc1.O=C(N=P(c1ccccc1)(c1ccccc1)c1ccccc1)c1ccccn1.[Cl-].[Cl-].[Ru+2]", "test": "ICP-MS, measured: ruthenium", "test system": "NOD.CB17-Prkdc scid/J mouse, plasma", "conditions": "intraperitoneal, 5 mg/kg, after first dose", "endpoint": "absorption rate constant", "result": "1.39 h⁻¹"}
{"SMILES": "C=CCNC(=O)NC1CC=C(c2cc3c(Nc4cc5ncsc5cc4F)ncnc3s2)CC1 (racemic)", "test system": "human liver microsomes", "conditions": "1 µM", "endpoint": "intrinsic clearance", "result": "< 12 mL/min/g protein"}
{"note": "Excerpt of the above:"}
{"SMILES": "Cc1ccc(C(C)C)cc1.O=C(N=P(c1ccccc1)(c1ccccc1)c1ccccc1)c1ccccn1.[Cl-].[Cl-].[Ru+2]", "test": "ICP-MS, measured: ruthenium", "test system": "NOD.CB17-Prkdc scid/J mouse, plasma", "conditions": "intraperitoneal, 5 mg/kg, after first dose", "endpoint": "absorption rate constant", "result": "1.39 h⁻¹"}
{"SMILES": "CC[C@@H](C)N([11CH3])C(=O)c1nc(-c2ccccc2)c2ccccc2n1", "test": "PET Logan analysis", "test system": "male rhesus monkey, cerebellum", "conditions": "intravenous, dose not given, baseline", "endpoint": "total volume of distribution", "result": "2.4 mL/cm³"}
